Measured values from different studies.
Parts stem from different laboratories: compare values within a part only. Substitutions count along the parent as printed.

Sample 1
Target: CCNB2, cyclin fold, Cln2 fusion (human)
Method: yeast growth competition, sequencing
Medium: yeast
Notes: weak parent motif
Relative to: not given
Reading: higher = stronger binding
Starting sequence: CCP110 docking peptide (human); EKVKRRLDLDIDG; partner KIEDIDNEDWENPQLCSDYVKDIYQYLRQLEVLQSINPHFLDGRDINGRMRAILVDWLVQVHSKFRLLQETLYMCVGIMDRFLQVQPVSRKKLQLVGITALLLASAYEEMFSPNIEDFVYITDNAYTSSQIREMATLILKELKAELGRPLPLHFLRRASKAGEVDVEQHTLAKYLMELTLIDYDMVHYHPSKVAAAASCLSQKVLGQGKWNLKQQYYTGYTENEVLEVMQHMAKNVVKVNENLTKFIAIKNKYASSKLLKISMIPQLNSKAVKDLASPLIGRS
Variant | normalised enrichment score
L9F | 3.37
I11A | 0.116
R5K L9F | 3.37
D12A | 0.0093
R6A | 0.101
D8A | 0.331
V3A | -0.354
K2A | 0.59
L7A | -0.158

Sample 2
Target: Histone acetyltransferase KAT6A, winged helix 2, GST fusion (KAT6A, Homo sapiens, UniProt Q92794, residues 85-181)
Method: protein binding microarray
Form: double-stranded DNA, one strand shown
Medium: in vitro
Tested at: not given
Notes: 8-mer, flanks averaged, mean of 2 arrays, mostly near background
Relative to: not given
Reading: higher = stronger binding
Target sequence (chain): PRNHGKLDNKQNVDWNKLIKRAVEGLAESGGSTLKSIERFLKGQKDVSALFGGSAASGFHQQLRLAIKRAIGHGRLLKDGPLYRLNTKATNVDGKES
Sequence | E-score
GGTTGGAA | 0.0674
CGAAATCG | 0.0862
GGAACTAA | -0.00346
GACTAAAA | 0.00396
TGGACAAA | 0.0194
ATGAACAA | -0.108
AGCACACA | -0.105
GGTCACAC | -0.0266
CGCAAGGC | 0.0772
AAGAACAC | 0.134
CCATATGG | -0.113
ACTTCCAG | -0.0954
AATGACAG | 0.00374
AGGACTGC | -0.0796
ACTTTCTG | 0.0666
CCGCATGA | 0.0529
GATGTTGC | 0.00281
GCTCGATA | 0.158
ACGTTACT | -0.194
AGTCGGCG | 0.157
GGGGTACA | -0.0438
AGTTCTGG | 0.126
GCATACGA | 0.0265
TAGCGGAA | -0.0195
TAAGATCA | -0.0134

Sample 3
Target: Centromere-binding protein 1, full length, N-terminal tag (CBF1, Saccharomyces cerevisiae, UniProt P17106, residues 1-351)
Sequence of UniProt P17106 (whole entry, looked up): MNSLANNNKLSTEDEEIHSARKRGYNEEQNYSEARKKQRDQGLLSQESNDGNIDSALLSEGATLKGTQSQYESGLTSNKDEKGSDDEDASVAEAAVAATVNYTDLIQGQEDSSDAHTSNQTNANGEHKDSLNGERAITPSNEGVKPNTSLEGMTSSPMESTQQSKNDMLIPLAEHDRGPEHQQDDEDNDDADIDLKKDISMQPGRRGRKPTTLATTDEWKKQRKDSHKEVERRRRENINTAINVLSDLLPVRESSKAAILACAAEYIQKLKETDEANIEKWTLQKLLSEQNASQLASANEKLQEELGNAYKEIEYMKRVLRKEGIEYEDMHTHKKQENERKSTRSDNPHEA
Method: protein-binding microarray
Form: double-stranded DNA, one strand shown
Medium: in vitro
Tested at: 0.8 µM
Notes: whole 60-bp probe, no competitor
Reading: higher = stronger binding
Shared flanks, not repeated: … GTCTTGATTCGCTTGACGCTGCTG
Sequence | fluorescence intensity [a.u.]
CTACGAATGTTGAATCACGCCAGAATCACCAAATTC | 564
GAATTTCATATTCATCAGACATAATGAATTTCATAG | 519
GAAGGGGCAAATAATAACGTGGGAATAACAAGCTAG | 556
CTATTCCCGGTTATGCACGAGGTCAATGAGACCTTC | 800
CTATCCTTTTCTGGTCACGTGGTCTTAGAACACTTC | 27500
CTACAGTCTTATATGCGCACGCCAGCAAAATCTTTC | 559
TGTACGAAGCTATAGAATCTGATTATAGTAGTTAGG | 507
GAAAGATCTTTCTGCCTGATGAAAGAAAATCCTTAG | 509
GAAGCTGTTTCTAATCACGTCTATCTAATTCATTAG | 753
GAAATGGTAAAAATAGTGATGGCGAAATGGGTCTAG | 500
CTAGTAAACAATTTGCTCGTGGTTTTTTTATCATTC | 617
GAATATTGTTGGAGTTACGTGAGTTCTCGCATATAG | 535
GAAATAAATAAACATCATCACAAGCAAGGTTATTAG | 519
GAAGGCGGCAACCTGGGTGTCACCGAATAACGTTAG | 463
CTAATAAACAGCGCTGACGTGCTTGGACTTTGTTTC | 524
GAAGATTTTTACAACGACACCACCACCATGTATTAG | 555
GAATGGAAAGTGTGGCATGTGCTTCACACAATATAG | 710
GAAGAGGCGTAAAGTAGTCTCATGAAGTAGATGTAG | 541
GAATGCTGTTCTTTCTTCATGATGCATTATGTATAG | 548
GAAAATCAAACTGTTTACGTGACATTGTACAATTAG | 613
CTACAGCTTTGCCAACACGCGCCGTCGGAAGGTTTC | 517

Sample 4
Target: Ras GTPase-activating protein-binding protein 1, full length (G3BP1, Homo sapiens, UniProt Q13283)
Sequence of UniProt Q13283 (whole entry, looked up): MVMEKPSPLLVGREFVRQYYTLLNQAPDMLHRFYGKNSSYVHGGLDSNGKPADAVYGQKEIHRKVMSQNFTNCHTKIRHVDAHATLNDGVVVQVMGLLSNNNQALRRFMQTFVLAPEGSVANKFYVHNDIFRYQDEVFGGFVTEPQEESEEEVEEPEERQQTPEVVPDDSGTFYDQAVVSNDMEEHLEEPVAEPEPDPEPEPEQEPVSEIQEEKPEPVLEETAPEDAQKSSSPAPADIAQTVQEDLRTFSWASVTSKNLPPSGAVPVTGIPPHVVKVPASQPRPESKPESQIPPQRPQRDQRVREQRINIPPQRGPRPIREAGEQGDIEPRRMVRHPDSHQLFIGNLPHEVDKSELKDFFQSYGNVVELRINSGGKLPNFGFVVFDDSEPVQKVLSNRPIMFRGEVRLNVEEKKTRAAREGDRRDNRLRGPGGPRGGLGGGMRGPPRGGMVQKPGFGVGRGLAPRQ
Method: RNA Bind-n-Seq
Form: RNA
Medium: in vitro
Tested at: 200 nM
Notes: whole 134-nt RNA, ends assumed
With: 150 mM LiCl
Relative to: input library
Reading: higher = stronger binding
Each molecule: 7-deaza-guanosine replaces G
Shared flanks, not repeated: GGGAGUUCUACAGUCCGACGAUC … UGGAAUUCUCGGGUGUCAAGG
Sequence | log2 enrichment
UCAAGUCCUGUGCUACACAUCGUAUGUACCGAAUCGGGUGGGAAAAAGGGUGGGAAAGUAUUAUGUUACGCCGUUCGGAUCUGCACUUCC | -0.528
UGGGAGGUGGAUUUUGUUUAUUUUUCUAGCUCAUUUCCAGGGGUGGGAAUUUUUUUUUAAUAUGUGUCAUGAAUAAAGUUGUUUUUGAAA | -0.338
AGUCCUGUGCUACACAUCGUAUGUACCGAAUCGGUUUUUGGUUUUUGGUUUUUGGGGAAAGUAUUAUGUUACGCCGUUCGGAUCUGCACU | -0.838
CAAGUCCUGUGCUACACAUCGUAUGUACCGAAUCGGAAAGGAAAGGAAAAAAAGGAAAGUAUUAUGUUACGCCGUUCGGAUCUGCACUUC | -0.24
AGUCCUGUGCUACACAUCGUAUGUACCGAAUCGGGGUUUUUGGGGAGGGGUUUGGGGAAAGUAUUAUGUUACGCCGUUCGGAUCUGCACU | -0.179
GUCCUGUGCUACACAUCGUAUGUACCGAAUCGGGUUUGGGUUUUUGGGUUUUUUUGGGAAAGUAUUAUGUUACGCCGUUCGGAUCUGCAC | -0.423
UGUGUUGUGCUCAUUACCAGUGCAGCGACUGCCGUCCCAGGGUGACUCUGAGUUGUCCUUUAUCGUGAGCUAGCAAUGGCUAGCGAAGAC | -1.6
ACCAUGCAGGUGGGCAUCUUUGGGAAGUGGGGCUAGGGGGGGAUAGGGAGGGGGGUAACACUUUGGGAACAGGUGGUCCCAGGUCGUUUC | 0.112
AAGUCCUGUGCUACACAUCGUAUGUACCGAAUCGGGUUUUGGGUUUUGGGUUUUGGGAAAGUAUUAUGUUACGCCGUUCGGAUCUGCACU | 0.0688
CAAGUCCUGUGCUACACAUCGUAUGUACCGAAUCGGGAGGGUUUGGGUUUUUGGGAAAGUAUUAUGUUACGCCGUUCGGAUCUGCACUUC | 0.32
ACCAUGCAGGUGGGCAUCUUUGGGAAGUGGGGCAAGGGGGGGAUAGGGAGGGGGGUAACACUUUGGGAACAGGUGAAACCAGGUCGUUUC | 0.161

Sample 5
Molecule: PhoQ, residues 284 288 289 292 302 303 ASTSDA
Method: Sort-seq
Refers to: YFP reporter
Medium: E. coli
Notes: PhoQ-PhoP variant library
With: 10 µM Mg2+
Relative to: high Mg2+ state
Reading: higher = stronger signaling
target | fold induction
PhoP, residues 12 14 15 18 19 LHTVL (Escherichia coli, UniProt P23836) | 14.1
PhoP, residues 12 14 15 18 19 NQCAL (Escherichia coli, UniProt P23836) | 9.82
PhoP, residues 12 14 15 18 19 TQAML (Escherichia coli, UniProt P23836) | 12.9

Sample 6
Target: ABI1, truncated, D143A, DHFR fusion (Arabidopsis thaliana)
Method: DHFR PCA, deep sequencing
Medium: yeast
Notes: methotrexate growth selection, single substitutions
With: (+)-ABA 0.39 µM
Relative to: wild-type fitted maximum
Reading: higher = stronger binding
Starting sequence: PYL1, truncated, DHFR fusion (Arabidopsis thaliana); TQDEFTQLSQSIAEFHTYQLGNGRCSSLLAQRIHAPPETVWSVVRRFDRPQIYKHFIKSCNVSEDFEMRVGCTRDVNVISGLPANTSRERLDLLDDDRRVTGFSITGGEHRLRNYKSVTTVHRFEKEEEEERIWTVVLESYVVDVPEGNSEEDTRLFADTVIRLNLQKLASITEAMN
Variant | relative binding score [%]
E64N | 44.9
V161C | 49.1
L91K | -11
Q2V | 66.7
S80Q | 2.79
G107S | 25.4
H55I | 62.1
Q51V | -15.3
R113A | 19.2
R111K | 15.7
V76D | -4.95
I52C | 21.2
R45L | -6.53
L8M | 37.9
V78H | 46.6
S104I | -5.76

Some of these lines once more (sample 2):
Sequence | E-score
AATGACAG | 0.00374
AGGACTGC | -0.0796
ACTTTCTG | 0.0666
CCGCATGA | 0.0529
GATGTTGC | 0.00281
GCTCGATA | 0.158
